Measured values collected from several papers.
Protocols differ between the studies behind these lines. ± gives the spread as reported.

| SMILES | test | system | setting | scale | measurement | value |
| --- | --- | --- | --- | --- | --- | --- |
| CC(C)C[C@H](NC(=O)C[C@H](O)[C@H](CC(C)C)NC(=O)[C@H](Cc1c[nH]cn1)NC(=O)CNC(=O)[C@@H](NC(=O)[C@H](C)NC(=O)[C@H](Cc1c[nH]c2ccccc12)NC(=O)[C@H](CCC(N)=O)NC(=O)[C@@H](Cc1ccccc1)NC(=O)c1ccc(NC(=O)CNC(=O)CCC(C(=O)O)N2CCN(CC(=O)O)CCN(CC(=O)O)CC2)cc1)C(C)C)C(N)=O (stereo partly drawn) [fluorine-18 labelled] | PET imaging | mice with PC-3 xenograft, tumour | intravenous, 0.5 h post injection |  | tumour uptake | 4.6 ± 1.5 %ID/g |
| N=C(N)NCCC[C@@H]1NC(=O)[C@H](CCCCNC(=O)CNC(=O)CNC(=O)CNC(=O)CC[C@H](NC(=O)c2ccc(NN=Cc3ccccc3S(=O)(=O)O)nc2)C(=O)NCC(=O)NCC(=O)NCC(=O)NCCCC[C@@H]2NC(=O)[C@@H](Cc3ccccc3)NC(=O)[C@H](CC(=O)O)NC(=O)CNC(=O)[C@H](CCCNC(=N)N)NC2=O)NC(=O)[C@@H](Cc2ccccc2)NC(=O)[C@H](CC(=O)O)NC(=O)CNC1=O [technetium-99m labelled] |  | female athymic nu/nu mice, U-87 MG glioma, tumour | intravenous, dose not given, 120 min, tumour weight below 0.05 g |  | tumour uptake | < 2 %ID/g |
| N=C(N)NCCC[C@@H]1NC(=O)[C@H](CCCCNC(=O)CCOCCOCCOCCOCCNC(=O)CC[C@H](NC(=O)CCOCCOCCOCCOCCNC(=O)CC[C@H](NC(=O)CN2CCN(CC(=O)O)CCN(CC(=O)O)CCN(CC(=O)O)CC2)C(=O)NCCOCCOCCOCCOCCC(=O)N[C@@H](CCC(=O)NCCOCCOCCOCCOCCC(=O)NCCCC[C@@H]2NC(=O)[C@@H](Cc3ccccc3)NC(=O)[C@H](CC(=O)O)NC(=O)CNC(=O)[C@H](CCCNC(=N)N)NC2=O)C(=O)NCCOCCOCCOCCOCCC(=O)NCCCC[C@@H]2NC(=O)[C@@H](Cc3ccccc3)NC(=O)[C@H](CC(=O)O)NC(=O)CNC(=O)[C@H](CCCNC(=N)N)NC2=O)C(=O)NCCOCCOCCOCCOCCC(=O)NCCCC[C@@H]2NC(=O)[C@@H](Cc3ccccc3)NC(=O)[C@H](CC(=O)O)NC(=O)CNC(=O)[C@H](CCCNC(=N)N)NC2=O)NC(=O)[C@@H](Cc2ccccc2)NC(=O)[C@H](CC(=O)O)NC(=O)CNC1=O [indium-111 labelled] |  | athymic nude mice, female, U-87 MG glioma xenograft, tumour and blood | intravenous, 1 h | reference: tumour over blood | tumour to tissue ratio | 46.4 ± 25.6 |
| CSCC[C@H](NC(=O)[C@H](CC(C)C)NC(=O)[C@H](Cc1c[nH]cn1)NC(=O)CNC(=O)[C@@H](NC(=O)[C@H](C)NC(=O)[C@H](Cc1c[nH]c2ccccc12)NC(=O)[C@H](CCC(N)=O)NC(=O)[C@H](CC(N)=O)NC(=O)CNC(=O)[C@H](Cc1ccc(O)cc1)NC(=O)[C@H](CCCNC(=N)N)NC(=O)[C@H](CCC(N)=O)NC(=O)[C@@H]1CCCN1C(=O)CN1CCN(CC(=O)O)CCN(CC(=O)O)CCN(CC(=O)O)CC1)C(C)C)C(N)=O [indium-111 labelled] |  | Swiss nu/nu mice, PC-3 xenograft | intravenous, 10 pmol, 1 h to 24 h post injection |  | tumour to kidney ratio change | 1 fold |
| N=C(N)NCCC[C@H](NC(=O)[C@H](CCCCN)NC(=O)[C@H](CCC(N)=O)NC(=O)CCOCCOCCOCCNC(=O)CN1CCN(CC(=O)O)CCN(CC(=O)O)CCN(CC(=O)O)CC1)C(=O)N[C@@H](CCCCN)C(=O)N[C@@H](CCCNC(=N)N)C(=O)N[C@@H](CCCCN)C(=O)N[C@@H](CCCCN)C(=O)N[C@@H](CO)C(=O)N[C@@H](CCCNC(=N)N)C(=O)N[C@@H](Cc1ccc(O)cc1)C(=O)N[C@@H](CCCCN)C(=O)N[C@@H](CO)C(=O)O [copper-64 labelled] |  | C57BL/6 mice, B16-F10 melanoma | intravenous, 20 min, decay corrected |  | tumour uptake | ~5.89 %ID/g |
| N=C(N)NCCC[C@@H]1NC(=O)[C@H](CCCCNC(=O)CNC(=O)CNC(=O)CNC(=O)CC[C@H](NC(=O)CCOCCOCCOCCOCCNC(=O)CC[C@H](NC(=O)CN2CCN(CC(=O)O)CCN(CC(=O)O)CCN(CC(=O)O)CC2)C(=O)NCCOCCOCCOCCOCCC(=O)N[C@@H](CCC(=O)NCC(=O)NCC(=O)NCC(=O)NCCCC[C@@H]2NC(=O)[C@@H](Cc3ccccc3)NC(=O)[C@H](CC(=O)O)NC(=O)CNC(=O)[C@H](CCCNC(=N)N)NC2=O)C(=O)NCC(=O)NCC(=O)NCC(=O)NCCCC[C@@H]2NC(=O)[C@@H](Cc3ccccc3)NC(=O)[C@H](CC(=O)O)NC(=O)CNC(=O)[C@H](CCCNC(=N)N)NC2=O)C(=O)NCC(=O)NCC(=O)NCC(=O)NCCCC[C@@H]2NC(=O)[C@@H](Cc3ccccc3)NC(=O)[C@H](CC(=O)O)NC(=O)CNC(=O)[C@H](CCCNC(=N)N)NC2=O)NC(=O)[C@@H](Cc2ccccc2)NC(=O)[C@H](CC(=O)O)NC(=O)CNC1=O [indium-111 labelled] |  | athymic nude mice, female, U-87 MG glioma xenograft, tumour and kidney | intravenous, 72 h | reference: tumour over kidney | tumour to tissue ratio | 3.14 ± 0.84 |
| N=C(N)NCCC[C@@H]1NC(=O)[C@H](CCCCNC(=O)CCOCCOCCOCCOCCNC(=O)CC[C@H](NC(=O)CCOCCOCCOCCOCCNC(=O)c2ccc(NN)nc2)C(=O)NCCOCCOCCOCCOCCC(=O)NCCCC[C@@H]2NC(=O)[C@@H](Cc3ccccc3)NC(=O)[C@H](CC(=O)O)NC(=O)CNC(=O)[C@H](CCCNC(=N)N)NC2=O)NC(=O)[C@@H](Cc2ccccc2)NC(=O)[C@H](CC(=O)O)NC(=O)CNC1=O [technetium-99m labelled] | SPECT/CT | athymic nude mice, U-87 MG xenograft, tumour | intravenous, 37 MBq, 60 min |  | tumour uptake | ~7 %ID/mL |
| N=C(N)NCCC[C@@H]1NC(=O)[C@H](CCCCNC(=O)CCOCCOCCOCCOCCNC(=O)CN2CCN(CC(=O)O)CCN(CC(=O)O)CCN(CC(=O)O)CC2)NC(=O)[C@@H](Cc2ccccc2)NC(=O)[C@H](CC(=O)O)NC(=O)CNC1=O [indium-111 labelled] |  | athymic nude mice, female, U-87 MG glioma xenograft, tumour and brain | intravenous, 24 h | reference: tumour over brain | tumour to tissue ratio | 50.6 ± 5.24 |
| N=C(N)NCCC[C@@H]1NC(=O)[C@H](CCCCNC(=O)CCOCCOCCOCCOCCOCCOCCOCCOCCOCCOCCOCCOCCNC(=O)CCSC2CC(=O)N(CCC(=O)NCCCC[C@H](NC(=O)CCC(C(=O)O)N3CCN(C(CCC(=O)N[C@@H](CCCCNC(=O)CCN4C(=O)CC(SCCC(=O)NCCOCCOCCOCCOCCOCCOCCOCCOCCOCCOCCOCCOCCC(=O)NCCCC[C@@H]5NC(=O)[C@@H](Cc6ccc(O)cc6)NC(=O)[C@H](CC(=O)O)NC(=O)CNC(=O)[C@H](CCCNC(=N)N)NC5=O)C4=O)C(=O)N(CCCNC(=O)CN4CCN(CC(=O)O)CCN(CC(=O)O)CCN(CC(=O)O)CC4)CCCNC(=O)CN4CCN(CC(=O)O)CCN(CC(=O)O)CCN(CC(=O)O)CC4)C(=O)O)CCN(C(CCC(=O)N[C@@H](CCCCNC(=O)CCN4C(=O)CC(SCCC(=O)NCCOCCOCCOCCOCCOCCOCCOCCOCCOCCOCCOCCOCCC(=O)NCCCC[C@@H]5NC(=O)[C@@H](Cc6ccc(O)cc6)NC(=O)[C@H](CC(=O)O)NC(=O)CNC(=O)[C@H](CCCNC(=N)N)NC5=O)C4=O)C(=O)N(CCCNC(=O)CN4CCN(CC(=O)O)CCN(CC(=O)O)CCN(CC(=O)O)CC4)CCCNC(=O)CN4CCN(CC(=O)O)CCN(CC(=O)O)CCN(CC(=O)O)CC4)C(=O)O)CC3)C(=O)N(CCCNC(=O)CN3CCN(CC(=O)O)CCN(CC(=O)O)CCN(CC(=O)O)CC3)CCCNC(=O)CN3CCN(CC(=O)O)CCN(CC(=O)O)CCN(CC(=O)O)CC3)C2=O)NC(=O)[C@@H](Cc2ccc(O)cc2)NC(=O)[C@H](CC(=O)O)NC(=O)CNC1=O (stereo partly drawn) [gallium-68 labelled] |  | SCID mice, U-87 MG xenograft tumour | 6.0 mg, unit not given | reference: 0.1 mg over 6.0 mg dose | tumour uptake reduction | ~3 |

For quick reference, copied from above:
| SMILES | test | system | setting | scale | measurement | value |
| --- | --- | --- | --- | --- | --- | --- |
| N=C(N)NCCC[C@@H]1NC(=O)[C@H](CCCCNC(=O)CNC(=O)CNC(=O)CNC(=O)CC[C@H](NC(=O)CCOCCOCCOCCOCCNC(=O)CC[C@H](NC(=O)CN2CCN(CC(=O)O)CCN(CC(=O)O)CCN(CC(=O)O)CC2)C(=O)NCCOCCOCCOCCOCCC(=O)N[C@@H](CCC(=O)NCC(=O)NCC(=O)NCC(=O)NCCCC[C@@H]2NC(=O)[C@@H](Cc3ccccc3)NC(=O)[C@H](CC(=O)O)NC(=O)CNC(=O)[C@H](CCCNC(=N)N)NC2=O)C(=O)NCC(=O)NCC(=O)NCC(=O)NCCCC[C@@H]2NC(=O)[C@@H](Cc3ccccc3)NC(=O)[C@H](CC(=O)O)NC(=O)CNC(=O)[C@H](CCCNC(=N)N)NC2=O)C(=O)NCC(=O)NCC(=O)NCC(=O)NCCCC[C@@H]2NC(=O)[C@@H](Cc3ccccc3)NC(=O)[C@H](CC(=O)O)NC(=O)CNC(=O)[C@H](CCCNC(=N)N)NC2=O)NC(=O)[C@@H](Cc2ccccc2)NC(=O)[C@H](CC(=O)O)NC(=O)CNC1=O [indium-111 labelled] |  | athymic nude mice, female, U-87 MG glioma xenograft, tumour and kidney | intravenous, 72 h | reference: tumour over kidney | tumour to tissue ratio | 3.14 ± 0.84 |
